Assay results collected from several papers.
Protocols differ between the studies behind these lines. “And” joins repeats or separate records; there may be more than shown. ± gives the spread as reported.
CDK5 with p25: Cyclin-dependent kinase 5, with p25 (CDK5, Homo sapiens, UniProt Q00535)
Sequence of UniProt Q00535 (whole entry, looked up): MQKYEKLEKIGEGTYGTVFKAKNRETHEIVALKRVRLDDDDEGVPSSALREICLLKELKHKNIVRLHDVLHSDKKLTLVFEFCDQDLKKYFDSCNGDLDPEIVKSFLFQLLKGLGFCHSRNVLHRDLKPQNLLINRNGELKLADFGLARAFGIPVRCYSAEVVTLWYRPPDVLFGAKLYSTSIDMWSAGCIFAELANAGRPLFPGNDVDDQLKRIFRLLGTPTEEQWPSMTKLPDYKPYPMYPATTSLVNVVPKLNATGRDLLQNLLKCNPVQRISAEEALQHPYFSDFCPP
U2AF2: U2AF2 148-342 (Homo sapiens, UniProt P26368)
Sequence of UniProt P26368 (whole entry, looked up): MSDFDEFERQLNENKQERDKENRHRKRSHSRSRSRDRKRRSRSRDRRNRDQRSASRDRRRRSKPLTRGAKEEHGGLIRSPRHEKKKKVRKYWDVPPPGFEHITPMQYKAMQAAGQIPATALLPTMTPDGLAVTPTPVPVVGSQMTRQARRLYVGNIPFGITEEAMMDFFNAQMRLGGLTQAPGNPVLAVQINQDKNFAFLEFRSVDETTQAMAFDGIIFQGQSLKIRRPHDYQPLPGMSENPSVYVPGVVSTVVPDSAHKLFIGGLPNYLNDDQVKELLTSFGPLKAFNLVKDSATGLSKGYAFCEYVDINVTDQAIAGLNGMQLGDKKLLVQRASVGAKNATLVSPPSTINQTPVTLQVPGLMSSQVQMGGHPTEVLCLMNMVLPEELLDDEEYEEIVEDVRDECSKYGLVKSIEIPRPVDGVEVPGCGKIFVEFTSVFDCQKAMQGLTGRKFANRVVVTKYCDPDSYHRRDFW
B1: human RECQ1; sequence looked up; chain MASVSALTEELDSITSELHAVEIQIQELTERQQELIQKKKVLTKKIKQCLEDSDAGASNEYDSSPAAWNKEDFPWSGKVKDILQNVFKLEKFRPLQLETINVTMAGKEVFLVMPTGGGKSLCYQLPALCSDGFTLVICPLISLMEDQLMVLKQLGISATMLNASSSKEHVKWVHAEMVNKNSELKLIYVTPEKIAKSKMFMSRLEKAYEARRFTRIAVDEVHCCSQWGHDFRPDYKALGILKRQFPNASLIGLTATATNHVLTDAQKILCIEKCFTFTASFNRPNLYYEVRQKPSNTEDFIEDIVKLINGRYKGQSGIIYCFSQKDSEQVTVSLQNLGIHAGAYHANLEPEDKTTVHRKWSANEIQVVVATVAFGMGIDKPDVRFVIHHSMSKSMENYYQESGRAGRDDMKADCILYYGFGDIFRISSMVVMENVGQQKLYEMVSYCQNISKCRRVLMAQHFDEVWNSEACNKMCDNCCKDSAFERKNITEYCRDLIKILKQAEELNEKLTPLKLIDSWMGKGAAKLRVAGVVAPTLPREDLEKIIAHFLIQQYLKEDYSFTAYATISYLKIGPKANLLNNEAHAITMQVTKSTQNSFRAESSQTCHSEQGDKKMEEKNSGNFQKKAANMLQQSGSKNTGAKKRKIDDA
B2: citrin, human; sequence looked up; chain AAAKVALTKRADPAELRTIFLKYASIEKNGEFFMSPNDFVTRYLNIFGESQPNPKTVELLSGVVDQTKDGLISFQEFVAFESVLCAPDALFMVAFQLFDKAGKGEVTFEDVKQVFGQTTIHQHIPFNWDSEFVQLHFGKERKRHLTYAEFTQFLLEIQLEHAKQAFVQRDNARTGRVTAIDFRDIMVTIRPHVLTPFVEECLVAAAGGTTSHQVSFSYFNGFNSLLNNMELIRKIYSTLAGTRKDVEVTKEEFVLAAQKFGQVTPMEVDILFQLADLYEPRGRMTLADIERIAPLEEGTLPFNLAEAQRQKASGDSARPVLLQVAESAYRFGLGSVAGAVGATAVYPIDLVKTRMQNQRSTGSFVGELMYKNSFDCFKKVLRYEGFFGLYRGLLPQLLGVAPEKAIKLTVNDFVRDKFMHKDGSVPLAAEILAGGCAGGSQVIFTNPLEIVKIRLQVAGEITTGPRVSALSVVRDLGFFGIYKGAKACFLRDIPFSAIYFPCYAHVKASFANEDGQVSPGSLLLAGAIAGMPAASLVTPADVIKTRLQVAARAGQTTYSGVIDCFRKILREEGPKALWKGAGARVFRSSPQFGVTLLTYELLQRWFYIDFGGVKPMGSEPVPKSRINLPAPNPDHVGGYKLAVATFAGIENKFGLYLPLFKPSVSTSKAIGGGP
B3: human hnRNP Q; sequence looked up; chain ATEHVNGNGTEEPMDTTSAVIHSENFQTLLDAGLPQKVAEKLDEIYVAGLVAHSDLDERAIEALKEFNEDGALAVLQQFKDSDLSHVQNKSAFLCGVMKTYRQREKQGTKVADSSKGPDEAKIKALLERTGYTLDVTTGQRKYGGPPPDSVYSGQQPSVGTEIFVGKIPRDLFEDELVPLFEKAGPIWDLRLMMDPLTGLNRGYAFVTFCTKEAAQEAVKLYNNHEIRSGKHIGVCISVANNRLFVGSIPKSKTKEQILEEFSKVTEGLTDVILYHQPDDKKKNRGFCFLEYEDHKTAAQARRRLMSGKVKVWGNVGTVEWADPIEDPDPEVMAKVKVLFVRNLANTVTEEILEKAFSQFGKLERVKKLKDYAFIHFDERDGAVKAMEEMNGKDLEGENIEIVFAKPPDQKRKERKAQRQAAKNQMYDDYYYYGPPHMPPPTRGRGRGGRGGYGYPPDYYGYEDYYDYYGYDYHNYRGGYEDPYYGYEDFQVGARGRGGRGARGAAPSRGRGAAPPRGRAGYSQRGGPGSARGVRGARGGAQQQRGRGVRGARGGRGGNVGGKRKADGYNQPDSKRRQTNNQNWGSQPIAQQPLQGGDHSGNYGYKSENQEFYQDTFGQQWK
B4: human exportin-2; sequence looked up; chain MELSDANLQTLTEYLKKTLDPDPAIRRPAEKFLESVEGNQNYPLLLLTLLEKSQDNVIKVCASVTFKNYIKRNWRIVEDEPNKICEADRVAIKANIVHLMLSSPEQIQKQLSDAISIIGREDFPQKWPDLLTEMVNRFQSGDFHVINGVLRTAHSLFKRYRHEFKSNELWTEIKLVLDAFALPLTNLFKATIELCSTHANDASALRILFSSLILISKLFYSLNFQDLPEFFEDNMETWMNNFHTLLTLDNKLLQTDDEEEAGLLELLKSQICDNAALYAQKYDEEFQRYLPRFVTAIWNLLVTTGQEVKYDLLVSNAIQFLASVCERPHYKNLFEDQNTLTSICEKVIVPNMEFRAADEEAFEDNSEEYIRRDLEGSDIDTRRRAACDLVRGLCKFFEGPVTGIFSGYVNSMLQEYAKNPSVNWKHKDAAIYLVTSLASKAQTQKHGITQANELVNLTEFFVNHILPDLKSANVNEFPVLKADGIKYIMIFRNQVPKEHLLVSIPLLINHLQAESIVVHTYAAHALERLFTMRGPNNATLFTAAEIAPFVEILLTNLFKALTLPGSSENEYIMKAIMRSFSLLQEAIIPYIPTLITQLTQKLLAVSKNPSKPHFNHYMFEAICLSIRITCKANPAAVVNFEEALFLVFTEILQNDVQEFIPYVFQVMSLLLETHKNDIPSSYMALFPHLLQPVLWERTGNIPALVRLLQAFLERGSNTIASAAADKIPGLLGVFQKLIASKANDHQGFYLLNSIIEHMPPESVDQYRKQIFILLFQRLQNSKTTKFIKSFLVFINLYCIKYGALALQEIFDGIQPKMFGMVLEKIIIPEIQKVSGNVEKKICAVGITKLLTECPPMMDTEYTKLWTPLLQSLIGLFELPEDDTIPDEEHFIDIEDTPGYQTAFSQLAFAGKKEHDPVGQMVNNPKIHLAQSLHKLSTACPGRVPSMVSTSLNAEALQYLQGYLQAASVTLL
B5: human ADP/ATP translocase 4; sequence looked up; chain MHREPAKKKAEKRLFDASSFGKDLLAGGVAAAVSKTAVAPIERVKLLLQVQASSKQISPEARYKGMVDCLVRIPREQGFFSFWRGNLANVIRYFPTQALNFAFKDKYKQLFMSGVNKEKQFWRWFLANLASGGAAGATSLCVVYPLDFARTRLGVDIGKGPEERQFKGLGDCIMKIAKSDGIAGLYQGFGVSVQGIIVYRASYFGAYDTVKGLLPKPKKTPFLVSFFIAQVVTTCSGILSYPFDTVRRRMMMQSGEAKRQYKGTLDCFVKIYQHEGISSFFRGAFSNVLRGTGGALVLVLYDKIKEFFHIDIGGR
B6: sequence looked up; chain SGPRTLVLLDNLNVRETHSLFFRSLKDRGFELTFKTADDPSLSLIKYGEFLYDNLIIFSPSVEDFGGNINVETISAFIDGGGSVLVAASSDIGDPLRELGSECGIEFDEEKTAVIDHHNYDISDLGQHTLIVADTENLLKAPTIVGKSSLNPILFRGVGMVADPDNPLVLDILTGSSTSYSFFPDKPITQYPHAVGKNTLLIAGLQARNNARVIFSGSLDFFSDSFFNSAVQKAAPGSQRYSQTGNYELAVALSRWVFKEEGVLRVGPVSHHRVGETAPPNAYTVTDLVEYSIVIQQLSNGKWVPFDGDDIQLEFVRIDPFVRTFLKKKGGKYSVQFKLPDVYGVFQFKVDYNRLGYTHLYSSTQVSVRPLQHTQYERFIPSAYPYYASAFSMMLGLFIFSIVFLHMKEKEKSD

`ELDPIYLSY` gave a GFP-positive cells of 1.95% (Jurkat expressing engineered TCR; NFAT-eGFP reporter, fluorescence microscopy; peptide; concentration not given, HLA-A*01:01 on EL4 cells).
`KEAFWDRCLSVINLMTSKMLQINA` has an activity change of 4% (CDK5 with p25; phosphotransferase activity, radiometric; peptide; concentration not given, 10% DMSO, added: histone substrate; reference: p5-WT peptide).
With `Pam2CSK4` the mRNA level was 4.36 and 5.59 and 5.18 (BV-2; RT-qPCR, refers to: Marco; concentration not given, unit not given; reference: untreated).
`QLDPIGQEF` has a GFP-positive cells of 0.466% (Jurkat expressing engineered TCR; NFAT-eGFP reporter, fluorescence microscopy; peptide; concentration not given, HLA-A*01:01 on EL4 cells).
With `KEAYWDRCLSVINLMSSKMLQINA` the activity change was 41% (CDK5 with p25; phosphotransferase activity, radiometric; peptide; concentration not given, 10% DMSO, added: histone substrate; reference: p5-WT peptide).
`B1 (human RECQ1)` — result for “log2 fold change”: -2.65 (CYB5R4 knockout human cells; PP6 interaction, 3xFLAG-PP6C IP-MS; concentration not given; reference: CYB5R4 KO over parental).
With `ELEPIYLEY` the GFP-positive cells was 0.601% (Jurkat expressing engineered TCR; NFAT-eGFP reporter, fluorescence microscopy; peptide; concentration not given, HLA-A*01:01 on EL4 cells).
With `epoetin alfa` the mRNA level was 7.7 fold (UT7/EPO; microarray, refers to: PHLDA1 (probe 217996_at); 5 U/mL, 90 min, added: SCF 10 nM; reference: vehicle).
With `EVDPIGHLY` the GFP-positive cells was 1.91% (Jurkat NFAT-eGFP expressing engineered TCR; NFAT reporter gene; peptide; concentration not given, HLA-A*01:01 presentation).
`B2 (citrin, human)`: “log2 fold change” -1.08 (CYB5R4 knockout human cells; PP4 interaction, 3xFLAG-PP4C IP-MS; concentration not given; reference: CYB5R4 KO over parental).
For `Peginesatide`, the phosphorylation was 3.4 fold (UT7/EPO; LC-MS/MS phosphoproteomics (trypsin), refers to: JAK2 phospho-Tyr1007,1008; 10 nM, 15 min; reference: vehicle).
For `EVDPVGLLF`, the GFP-positive cells was 0.956% (Jurkat expressing engineered TCR; NFAT-eGFP reporter, fluorescence microscopy; peptide; concentration not given, HLA-A*01:01 on EL4 cells).
`MTVCNASQRQAHAQATAVSL` gave a selectivity ratio of 3.2 ± 2.7 (H157 lung squamous carcinoma; phage binding output/input; peptide; reference: control phage).
The Kd of `UAUUUUCCC (ssRNA)` is reported as 1770 nM (U2AF2; sequencing of bound RNA; RNA; motif only).
For `B3 (human hnRNP Q)`, “log2 fold change” read 0.15 (CYB5R4 knockout human cells; PP4 interaction, 3xFLAG-PP4C IP-MS; concentration not given; reference: CYB5R4 KO over parental).
`Triton X-100` gave an IC50 of 1600 nM (HFF; cytotoxicity).
`B4 (human exportin-2)` — result for “log2 fold change”: -0.38 (CYB5R4 knockout human cells; PP4 interaction, 3xFLAG-PP4C IP-MS; concentration not given; reference: CYB5R4 KO over parental).
`YGRKKRRQRRRAQLQLDPETGEFLPIQ`: “EC50 fold improvement” 2 to 3 fold (SH-SY5Y Neh2-luc reporter; peptide; reference: wild-type peptide over mutant).
`B5 (human ADP/ATP translocase 4)`: “log2 fold change” -0.79 (CYB5R4 knockout human cells; PP4 interaction, 3xFLAG-PP4C IP-MS; concentration not given; reference: CYB5R4 KO over parental).
The Kd of `AGGCUGUUUUAAUCUCUUCUAA (ssRNA)` is reported as 2420 ± 177 nM (U2AF2; ITC; RNA).
With `EVDPIGLEF` the GFP-positive cells was 0.624% (Jurkat expressing engineered TCR; NFAT-eGFP reporter, fluorescence microscopy; peptide; concentration not given, HLA-A*01:01 on EL4 cells).
`B6` — result for “log2 fold change”: -0.93 (CYB5R4 knockout human cells; PP6 interaction, 3xFLAG-PP6C IP-MS; concentration not given; reference: CYB5R4 KO over parental).

Repeated from above:
`KEAFWDRCLSVINLMTSKMLQINA` has an activity change of 4% (CDK5 with p25; phosphotransferase activity, radiometric; peptide; concentration not given, 10% DMSO, added: histone substrate; reference: p5-WT peptide).
With `Pam2CSK4` the mRNA level was 4.36 and 5.59 and 5.18 (BV-2; RT-qPCR, refers to: Marco; concentration not given, unit not given; reference: untreated).
